Measured values collected from several papers.
Parts stem from different laboratories: compare values within a part only. Changes are numbered by the printed parent chain.

Block 1
Molecule: PhoQ, residues 284 288 289 292 302 303 SSTLSG
Method: Sort-seq
Refers to: YFP reporter
Medium: E. coli
Setting: PhoQ-PhoP variant library
Added: 10 µM Mg2+
Relative to: high Mg2+ state
Direction: higher = stronger signaling
PhoP, residues 12 14 15 18 19 TQCLL (Escherichia coli, UniProt P23836) — fold induction: 6.83.
PhoP, residues 12 14 15 18 19 VHTVL (Escherichia coli, UniProt P23836) — fold induction: 2.44.
PhoP, residues 12 14 15 18 19 ICWRQ (Escherichia coli, UniProt P23836) — fold induction: 11.2.

Block 2
Target: RNA binding protein fox-1 homolog 2, RRM domain, GST-SBP tag (RBFOX2, Homo sapiens, UniProt O43251-10, residues 100-194)
Method: RNA Bind-n-Seq
Molecule type: RNA
Medium: in vitro
Concentration: 365 nM
Setting: natural RNA segment, single round, ends assumed
Relative to: no-protein control
Direction: higher = stronger binding
Constant ends, left off below: GGGAGUUCUACAGUCCGACGAUC … UGGAAUUCUCGGGUGCCAA
Target sequence (chain): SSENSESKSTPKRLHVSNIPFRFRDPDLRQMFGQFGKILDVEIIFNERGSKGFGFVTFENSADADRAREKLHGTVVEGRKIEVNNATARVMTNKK
`AUGUCCCUCCCCUCACUGCCCCACAUUCUCCCAGUGGCUCUACCAGCCUCACCCAUCAAACCAGUGAAUUUCUCAAUCUUGCCUCACAGUGACUGCAGCGCCAAGCGGCA`: “RBNS enrichment (R)” 0.889.
For `GAGCUGUUUAUGGCAAUUUAAUACCAUUCUCUUUGUAAAGUGAAUAAAUAUUCAUCUUUACCCAGUGCUUGUCUUGUGGUAUAUGUAGAGGAAUACAGCCACAUGUUUGG`, “RBNS enrichment (R)” read 0.799.
`CUUUGUGGCUUUGGACCUGGACAGGAAGGUCCCACGGACCUUAUGUGAUGCGGGAGGCUCACAAACUUACAAAUCCAACUUUUAUUCUGAGGAACUUACUGUACAAUAUC`: “RBNS enrichment (R)” 0.547.
`GUAAUGGAGUCCCCACCACCGCUUAGGUUCUGCUGGGGUCACACUGCCUUCAGAUUCCUGCCGCCAUCUUCUGCCUGCAGGAUUGGGACUCCCACCCUGGCAUCAGACAC` — result for “RBNS enrichment (R)”: 0.27.
For `CUUCAAAUUCUCUUUCAGUAGUACAAUAGCAGGGGGAAAGGGGACAGGUAACAGGAGUACCUUUGUUUUAACAGACAAAAGUAAUCUCCAGGCCUUAGGGACUCAUAAAG`, “RBNS enrichment (R)” read 0.265.
For `AUGGAACUGUGAGUUCAUUAAACCUCUUUUUCUUCAUAAAUUACCCAGUCUCGGGUAUGUCUUUAUCAGCAGUGUGAAAACAGACUAAUACACCACUCCUCUACCUUCUU`, “RBNS enrichment (R)” read 0.448.
`GGAAGCAGGUCUCCGCGAGGGGUUUCUUUCCAUGUGUUUUCCUCCUGUUGUUUUAGAACUUUUUUAAAAAAACAGACCUCGUUUUAGAUUUAUAGCAUUGACUUUUACAC` — result for “RBNS enrichment (R)”: 0.821.
`CUGUUCGUCUGCACAGCUGUGAGGCGAUGCUGUUCCAUCUGCACAUGAAGGACCCCCAUACAGCCUGUCUCCCACCCCUGACAACCCGAGAGGGCAUAUGGGGCCCUGCC` — result for “RBNS enrichment (R)”: 1.14.

Block 3
Target: Phosphate system positive regulatory protein PHO4, full length, GST-tagged (PHO4, Saccharomyces cerevisiae, UniProt P07270, residues 1-312)
Method: competition protein-binding microarray
Molecule type: double-stranded DNA, one strand shown
Medium: in vitro
Concentration: 2 µM
Setting: whole 60-bp probe, lowest competitor level
Added: Cbf1 competitor, 0.05 µM
Direction: higher = stronger binding
Constant ends, left off below: … GTCTTGATTCGCTTGACGCTGCTG
Construct (chain): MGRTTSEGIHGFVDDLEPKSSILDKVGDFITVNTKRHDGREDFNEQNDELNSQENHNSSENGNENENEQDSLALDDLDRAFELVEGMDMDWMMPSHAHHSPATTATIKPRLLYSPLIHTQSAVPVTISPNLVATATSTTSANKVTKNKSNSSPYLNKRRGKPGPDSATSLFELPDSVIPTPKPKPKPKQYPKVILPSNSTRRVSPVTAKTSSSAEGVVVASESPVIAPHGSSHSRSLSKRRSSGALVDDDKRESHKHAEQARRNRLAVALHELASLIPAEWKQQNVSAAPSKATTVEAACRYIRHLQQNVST
With `TTAAATTCAAGTTACCTCGTGTTCCTAGTCATTGGC` the fluorescence intensity was 10900 a.u.
`GATTCACTTGATATTCACGTGCAAAAACCATTAGTA` has a fluorescence intensity of 15700 a.u.
`GCTTTCGATTTTCCTCACGTGACGGCGTTTCTTGGC` gave a fluorescence intensity of 12900 a.u.
With `CAGTTCTACTGGTTCGACGTGCTTTACACCCGCAAC` the fluorescence intensity was 5340 a.u.
The fluorescence intensity of `CATAAGTGAATGTTCCACGTGTTGAGTTTCTTACAG` is reported as 17500 a.u.
`CGTCCTAGTGATTTTCACGTGACGTCCATGAGGAAG` gave a fluorescence intensity of 10800 a.u.
`CGTCCTAGTGATTTTCACGTGTCTTCCATGAGGAAG` has a fluorescence intensity of 13100 a.u.
For `GAATTTTGCGTTCCGCACGTTTCTCAAGTACATAAT`, the fluorescence intensity was 12300 a.u.
`AAATTACTAAGTTGTTTGGTGGGTGACGCCGTATGA` has a fluorescence intensity of 3780 a.u.
For `CTGTCGGCCCAGTTCCACGTTCATCGCAACTATCAA`, the fluorescence intensity was 9830 a.u.
`TGCGCAACAACTTTTCACGTGATATTATGTCTAGAA` has a fluorescence intensity of 12800 a.u.
For `AAATTACTAAGTTGACTGGTGGGTGACGCCGTATGA`, the fluorescence intensity was 3880 a.u.
For `CGATGGATATATTGTCATGCGGATGCATTTTGGCTG`, the fluorescence intensity was 6930 a.u.

Block 4
Target: CCNA2, cyclin fold, Cln2 fusion (human)
Method: yeast growth competition, sequencing
Medium: yeast
Setting: strong parent motif
Relative to: not given
Direction: higher = stronger binding
Starting sequence: INSM1 docking peptide (human); PKAIRKLHFEDEV
For `L7G`, “normalised enrichment score” read -0.335.
For `K6F`, “normalised enrichment score” read 1.75.
Under “normalised enrichment score”, `F9P` is recorded as 0.549.
`I4W` — result for “normalised enrichment score”: 5.96.
For `H8T`, “normalised enrichment score” read 5.52.
For `E10Q`, “normalised enrichment score” read 4.88.
`H8R`: “normalised enrichment score” 4.77.
`K6L` — result for “normalised enrichment score”: 1.23.
Under “normalised enrichment score”, `R5C` is recorded as 2.17.
`K6G` — result for “normalised enrichment score”: 1.7.
Under “normalised enrichment score”, `K2P` is recorded as 3.74.
Under “normalised enrichment score”, `E10Y` is recorded as 4.69.
Under “normalised enrichment score”, `D11T` is recorded as 4.6.
For `A3P`, “normalised enrichment score” read 4.08.

A few entries again (block 2):
For `GAGCUGUUUAUGGCAAUUUAAUACCAUUCUCUUUGUAAAGUGAAUAAAUAUUCAUCUUUACCCAGUGCUUGUCUUGUGGUAUAUGUAGAGGAAUACAGCCACAUGUUUGG`, “RBNS enrichment (R)” read 0.799.
`GUAAUGGAGUCCCCACCACCGCUUAGGUUCUGCUGGGGUCACACUGCCUUCAGAUUCCUGCCGCCAUCUUCUGCCUGCAGGAUUGGGACUCCCACCCUGGCAUCAGACAC` — result for “RBNS enrichment (R)”: 0.27.
For `CUUCAAAUUCUCUUUCAGUAGUACAAUAGCAGGGGGAAAGGGGACAGGUAACAGGAGUACCUUUGUUUUAACAGACAAAAGUAAUCUCCAGGCCUUAGGGACUCAUAAAG`, “RBNS enrichment (R)” read 0.265.
`CUGUUCGUCUGCACAGCUGUGAGGCGAUGCUGUUCCAUCUGCACAUGAAGGACCCCCAUACAGCCUGUCUCCCACCCCUGACAACCCGAGAGGGCAUAUGGGGCCCUGCC` — result for “RBNS enrichment (R)”: 1.14.
For `AUGGAACUGUGAGUUCAUUAAACCUCUUUUUCUUCAUAAAUUACCCAGUCUCGGGUAUGUCUUUAUCAGCAGUGUGAAAACAGACUAAUACACCACUCCUCUACCUUCUU`, “RBNS enrichment (R)” read 0.448.
